# Experimental data pooled from the literature.
# Every numbered part comes from another study and shows a few of its results, in no order.

# Study 1
# Target: Sal-like protein 4, full length isoform A (SALL4, Homo sapiens, UniProt Q9UJQ4, residues 1-1053)
# Sequence of UniProt Q9UJQ4 (whole entry, looked up): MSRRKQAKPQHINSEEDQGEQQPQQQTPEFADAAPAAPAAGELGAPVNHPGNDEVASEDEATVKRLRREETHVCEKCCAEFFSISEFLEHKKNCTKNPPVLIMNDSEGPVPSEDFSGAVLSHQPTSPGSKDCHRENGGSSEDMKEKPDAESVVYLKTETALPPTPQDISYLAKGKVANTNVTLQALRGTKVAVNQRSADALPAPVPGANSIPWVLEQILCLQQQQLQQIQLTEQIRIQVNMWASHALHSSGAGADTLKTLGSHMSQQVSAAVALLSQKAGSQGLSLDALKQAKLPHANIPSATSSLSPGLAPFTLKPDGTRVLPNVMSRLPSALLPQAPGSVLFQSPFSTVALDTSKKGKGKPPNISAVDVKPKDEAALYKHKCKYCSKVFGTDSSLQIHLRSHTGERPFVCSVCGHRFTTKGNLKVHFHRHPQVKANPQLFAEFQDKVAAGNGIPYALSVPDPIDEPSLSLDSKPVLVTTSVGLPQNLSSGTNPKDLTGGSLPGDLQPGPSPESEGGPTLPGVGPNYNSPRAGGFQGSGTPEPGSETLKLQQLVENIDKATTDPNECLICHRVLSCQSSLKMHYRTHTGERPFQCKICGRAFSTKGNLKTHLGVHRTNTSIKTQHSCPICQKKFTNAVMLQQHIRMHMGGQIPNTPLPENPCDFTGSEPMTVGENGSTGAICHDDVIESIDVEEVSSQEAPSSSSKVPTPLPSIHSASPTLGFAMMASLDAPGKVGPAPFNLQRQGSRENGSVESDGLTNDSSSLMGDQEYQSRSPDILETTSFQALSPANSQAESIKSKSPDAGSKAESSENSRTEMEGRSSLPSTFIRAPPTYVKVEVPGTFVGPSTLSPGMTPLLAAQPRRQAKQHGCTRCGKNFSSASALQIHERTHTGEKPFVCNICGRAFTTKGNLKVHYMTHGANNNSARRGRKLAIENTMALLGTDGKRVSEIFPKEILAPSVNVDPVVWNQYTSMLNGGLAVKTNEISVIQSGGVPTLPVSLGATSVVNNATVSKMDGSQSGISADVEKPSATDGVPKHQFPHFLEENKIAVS
# Method: universal PBM
# Form: double-stranded DNA, one strand shown
# Sample: in vitro
# Tested at: 600 nM
# Setting: 8-mer, flanks averaged, mean of replicates
# Direction: higher = stronger binding
Sequence,E-score
AGCCCGAA,-0.208
GAAAGGAA,-0.0348
GAGGGATC,-0.25
AACACATC,0.147

# Study 2
# Target: Transcription factor Sp1 (SP1, Homo sapiens, UniProt P08047, residues 1-785, full length assumed)
# Sequence of UniProt P08047 (whole entry, looked up): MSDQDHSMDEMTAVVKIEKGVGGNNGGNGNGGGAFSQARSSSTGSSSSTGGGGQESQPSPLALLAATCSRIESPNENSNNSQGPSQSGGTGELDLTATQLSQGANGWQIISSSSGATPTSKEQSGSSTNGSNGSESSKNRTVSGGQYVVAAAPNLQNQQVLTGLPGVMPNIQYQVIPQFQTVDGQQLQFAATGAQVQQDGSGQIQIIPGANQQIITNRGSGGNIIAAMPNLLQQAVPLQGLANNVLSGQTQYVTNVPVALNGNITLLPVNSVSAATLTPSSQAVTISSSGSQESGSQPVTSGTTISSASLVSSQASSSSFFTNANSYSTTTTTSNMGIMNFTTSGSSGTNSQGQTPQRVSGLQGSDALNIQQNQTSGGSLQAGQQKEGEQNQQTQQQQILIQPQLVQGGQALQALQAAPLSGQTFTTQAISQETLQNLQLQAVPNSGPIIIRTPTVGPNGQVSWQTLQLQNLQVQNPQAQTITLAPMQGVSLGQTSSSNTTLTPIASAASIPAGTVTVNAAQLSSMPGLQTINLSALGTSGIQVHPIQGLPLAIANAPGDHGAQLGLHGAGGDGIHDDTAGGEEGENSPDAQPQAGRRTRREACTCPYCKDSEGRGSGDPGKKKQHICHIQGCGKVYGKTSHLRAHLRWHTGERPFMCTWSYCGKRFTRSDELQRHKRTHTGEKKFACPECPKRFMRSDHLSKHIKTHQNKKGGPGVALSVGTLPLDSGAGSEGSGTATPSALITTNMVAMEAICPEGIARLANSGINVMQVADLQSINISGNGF
# Method: protein-binding microarray
# Form: double-stranded DNA, one strand shown
# Sample: in vitro
# Tested at: not given
# Setting: k-mer, scored over probes, only values ≥0.25
# Direction: higher = stronger binding
Sequence,E-score
GCGTATAC,0.264
GATCCCCA,0.262
CCCACACC,0.358
CCCCGCCC,0.498

# Study 3
# Target: RNA binding protein fox-1 homolog 2, RRM domain, GST-SBP tag (RBFOX2, Homo sapiens, UniProt O43251-10, residues 100-194)
# Method: RNA Bind-n-Seq
# Form: RNA
# Sample: in vitro
# Tested at: 365 nM
# Setting: natural RNA segment, single round, ends assumed
# Relative to: no-protein control
# Direction: higher = stronger binding
# Shared flanks, not repeated: GGGAGUUCUACAGUCCGACGAUC … UGGAAUUCUCGGGUGCCAA
Sequence,RBNS enrichment (R)
AACAACCUUGACUUCCAUGGAGGAAGUGCUGGCCCCAAGGGGUCUGACACAAAGACGGGAAACCCAGUCGGCCUCUAGUUUUCUGCUGCUCUCAGGCAGCACAUCUUGCA,2.06
AAGACAAGUGAAACUGGGUGCAAGCUAAAAUUUUUAAAUGGUGUGGAGACUCGAAUGAUACCAAGAUAAUACAGAUAUUAUUAAGAAUUUUUUUGUGUUGAGGUGAUGUA,1.61
AGAAUCUAGUUUAAUUGUUUCAGGUAGAAAGUAUUCUUUUGAGUUUCCAUUUUGAAUGUGUUUGGACUAAAACAAUAAACUACUGAUGUCUGCAGCAUUUAUCUAUGUCC,1.91
UUUCCCUUCCUUUGGACAGUGUUACAAUGAACACUUAGCAUUCUGUUUUUGGUUGAUAGUUGAGCAAACUGACAUUACAGAAAGUGCCUUAGACACUACAGUACUAAGAC,0.512
AACAGGUCUUUUCUCUCUCCUUUAUGGUACUUCUCAGAACAAGAGAAACUGAGUUAGGGCUUGAGUCAGCAUCCCAGUGCUUUUGUCUAGCUUGGUUCUGGGGUUGAGAA,0.666

# Further values, each from its own experiment
Molecule,target,assay,system,conditions,scale,endpoint,value
"PhoQ, residues 284 288 289 292 302 303 TTSMTC","PhoP, residues 12 14 15 18 19 NNFVT (Escherichia coli, UniProt P23836)","Sort-seq, measured: YFP reporter",E. coli,"PhoQ-PhoP variant library, with: 10 µM Mg2+","relative to: high Mg2+ state, higher = stronger signaling",fold induction,0.11

# For quick reference, copied from above (study 2):
Sequence,E-score
GATCCCCA,0.262
GCGTATAC,0.264
